Experimental data of several laboratories.
Compare with care: the assays were run in different laboratories. ± marks the error that the study gave.

Compound = N=C(N)NCCC[C@@H]1NC(=O)[C@H](CCCCNC(=O)CCOCCOCCOCCOCCNC(=O)CC[C@H](NC(=O)[C@H](CCCCNC(=O)c2ccc(NN)nc2)NC(=O)c2ccc(NN)nc2)C(=O)NCCOCCOCCOCCOCCC(=O)NCCCC[C@@H]2NC(=O)[C@@H](Cc3ccccc3)NC(=O)[C@H](CC(=O)O)NC(=O)CNC(=O)[C@H](CCCNC(=N)N)NC2=O)NC(=O)[C@@H](Cc2ccccc2)NC(=O)[C@H](CC(=O)O)NC(=O)CNC1=O [technetium-99m labelled]; test system = female athymic nude mice, liver; setting = intravenous, 0.1 MBq, 1 h, U-87 MG glioma xenograft; measurement = tissue uptake; value = 2.74 ± 0.5 %ID/g
Compound = CC(C)C[C@H](NC(=O)[C@H](Cc1ccc(O)cc1)NC(=O)[C@@H](CCCNC(=N)N)NC(=O)[C@@H](CO)NC(=O)[C@H](Cc1ccccc1)NC(=O)[C@H](CC1CCCCC1)NC(=O)[C@H](CC(=O)O)NC(=O)CCC(C(=O)O)N1CCCN2CCN(CCCN(CC(=O)O)CC2)CC1)C(=O)N[C@@H](Cc1c[nH]c2ccccc12)C(=O)N[C@@H](CO)C(=O)O (stereo partly shown) [copper-64 labelled]; test system = female NMRI nude mice, brain; setting = 1 h p.i.; measurement = tissue uptake; value = 0.1 ± 0.1 %ID/g
Compound = CSCC[C@H](NC(=O)[C@H](CC(C)C)NC(=O)[C@H](Cc1c[nH]cn1)NC(=O)CNC(=O)[C@@H](NC(=O)[C@H](C)NC(=O)[C@H](Cc1c[nH]c2ccccc12)NC(=O)[C@H](CCC(N)=O)NC(=O)CNC(=O)[C@H](CO)NC(=O)CNC(=O)CCCCCCCNC(=O)CCC(=O)Nc1ccc(CNC23CNCCNCC(N)(CNCCNC2)CNCCNC3)cc1)C(C)C)C(N)=O [copper-64 labelled]; test system = female SCID mice, PC-3 xenograft, lung; setting = intravenous, 0.6 MBq, 4 h; measurement = tissue uptake; value = 0.348 ± 0.017 %ID/g
Compound = N=C(N)NCCC[C@H](NC(=O)[C@H](CCCCN)NC(=O)[C@H](CCC(N)=O)NC(=O)CCOCCOCCOCCNC(=O)CN1CCN(CC(=O)O)CCN(CC(=O)O)CCN(CC(=O)O)CC1)C(=O)N[C@@H](CCCCN)C(=O)N[C@@H](CCCNC(=N)N)C(=O)N[C@@H](CCCCN)C(=O)N[C@@H](CCCCN)C(=O)N[C@@H](CO)C(=O)N[C@@H](CCCNC(=N)N)C(=O)N[C@@H](Cc1ccc(O)cc1)C(=O)N[C@@H](CCCCN)C(=O)N[C@@H](CO)C(=O)O [copper-64 labelled]; test system = male C57BL/6 mice, B16-F10 tumour, testis; setting = intravenous, 60 min; measurement = tissue uptake; value = 0.39 ± 0.05 %ID/g
Compound = N=C(N)NCCC[C@@H]1NC(=O)[C@H](CCCCNC(=O)CNC(=O)CNC(=O)CNC(=O)CC[C@H](NC(=O)CCOCCOCCOCCOCCNC(=O)CC[C@H](NC(=O)CN2CCN(CC(=O)O)CCN(CC(=O)O)CCN(CC(=O)O)CC2)C(=O)NCCOCCOCCOCCOCCC(=O)N[C@@H](CCC(=O)NCC(=O)NCC(=O)NCC(=O)NCCCC[C@@H]2NC(=O)[C@@H](Cc3ccccc3)NC(=O)[C@H](CC(=O)O)NC(=O)CNC(=O)[C@H](CCCNC(=N)N)NC2=O)C(=O)NCC(=O)NCC(=O)NCC(=O)NCCCC[C@@H]2NC(=O)[C@@H](Cc3ccccc3)NC(=O)[C@H](CC(=O)O)NC(=O)CNC(=O)[C@H](CCCNC(=N)N)NC2=O)C(=O)NCC(=O)NCC(=O)NCC(=O)NCCCC[C@@H]2NC(=O)[C@@H](Cc3ccccc3)NC(=O)[C@H](CC(=O)O)NC(=O)CNC(=O)[C@H](CCCNC(=N)N)NC2=O)NC(=O)[C@@H](Cc2ccccc2)NC(=O)[C@H](CC(=O)O)NC(=O)CNC1=O [indium-111 labelled]; test system = female athymic nude mice, muscle; setting = intravenous, 3 µCi, 4 h, U-87 MG glioma xenograft; measurement = tissue uptake; value = 0.52 ± 0.07 %ID/g
Compound = CSCC[C@H](NC(=O)[C@H](CC(C)C)NC(=O)[C@H](Cc1c[nH]cn1)NC(=O)CNC(=O)[C@@H](NC(=O)[C@H](C)NC(=O)[C@H](Cc1c[nH]c2ccccc12)NC(=O)[C@H](CCC(N)=O)NC(=O)CCCCCCCNC(=O)CCC(=O)Nc1ccc(CNC23CNCCNCC(N)(CNCCNC2)CNCCNC3)cc1)C(C)C)C(N)=O [copper-64 labelled]; test system = female SCID mice, PC-3 xenograft, kidney; setting = intravenous, 0.6 MBq, 4 h; measurement = tissue uptake; value = 8.3 ± 0.558 %ID/g
Compound = N=C(N)NCCC[C@@H]1NC(=O)[C@H](CCCCNC(=O)CC[C@H](NC(=O)[C@H](CCCCNC(=O)c2ccc(NN)nc2)NC(=O)c2ccc(NN)nc2)C(=O)NCCCC[C@@H]2NC(=O)[C@@H](Cc3ccccc3)NC(=O)[C@H](CC(=O)O)NC(=O)CNC(=O)[C@H](CCCNC(=N)N)NC2=O)NC(=O)[C@@H](Cc2ccccc2)NC(=O)[C@H](CC(=O)O)NC(=O)CNC1=O [technetium-99m labelled]; test system = female athymic nude mice, liver; setting = intravenous, 0.1 MBq, 1 h, U-87 MG glioma xenograft; measurement = tissue uptake; value = 1.55 ± 0.27 %ID/g
Compound = N=C(N)NCCC[C@@H]1NC(=O)[C@H](CCCCNC(=O)CCOCCOCCOCCOCCNC(=O)CN2CCN(CC(=O)O)CCN(CC(=O)O)CCN(CC(=O)O)CC2)NC(=O)[C@@H](Cc2ccccc2)NC(=O)[C@H](CC(=O)O)NC(=O)CNC1=O [indium-111 labelled]; test system = athymic nude mice, female, U-87 MG glioma xenograft, U-87 MG tumour; setting = intravenous, 3 µCi, 1 h; measurement = tissue uptake; value = 2.54 ± 0.37 %ID/g
Compound = N=C(N)NCCC[C@@H]1NC(=O)[C@H](CCCCNC(=O)CNC(=O)CNC(=O)CNC(=O)CC[C@H](NC(=O)CNC(=O)CNC(=O)CNC(=O)[C@H](CCCCNC(=O)c2ccc(NN)nc2)NC(=O)c2ccc(NN)nc2)C(=O)NCC(=O)NCC(=O)NCC(=O)NCCCC[C@@H]2NC(=O)[C@@H](Cc3ccccc3)NC(=O)[C@H](CC(=O)O)NC(=O)CNC(=O)[C@H](CCCNC(=N)N)NC2=O)NC(=O)[C@@H](Cc2ccccc2)NC(=O)[C@H](CC(=O)O)NC(=O)CNC1=O [technetium-99m labelled]; test system = female athymic nude mice; setting = intravenous, 1 h, U-87 MG glioma xenograft; scale = relative to: tumour over liver; measurement = tissue ratio; value = 2.92 ± 0.64
Compound = N=C(N)NCCC[C@@H]1NC(=O)[C@H](CCCCNC(=O)CC[C@H](NC(=O)CCOCCOCCOCCOCCNC(=O)CN2CCN(CC(=O)O)CCN(CC(=O)O)CCN(CC(=O)O)CC2)C(=O)NCCCC[C@@H]2NC(=O)[C@@H](Cc3ccccc3)NC(=O)[C@H](CC(=O)O)NC(=O)CNC(=O)[C@H](CCCNC(=N)N)NC2=O)NC(=O)[C@@H](Cc2ccccc2)NC(=O)[C@H](CC(=O)O)NC(=O)CNC1=O [indium-111 labelled]; test system = female athymic nude mice, eyes; setting = intravenous, 3 µCi, 72 h, U-87 MG glioma xenograft; measurement = tissue uptake; value = 0.2 ± 0.04 %ID/g

A few entries again:
Compound = N=C(N)NCCC[C@H](NC(=O)[C@H](CCCCN)NC(=O)[C@H](CCC(N)=O)NC(=O)CCOCCOCCOCCNC(=O)CN1CCN(CC(=O)O)CCN(CC(=O)O)CCN(CC(=O)O)CC1)C(=O)N[C@@H](CCCCN)C(=O)N[C@@H](CCCNC(=N)N)C(=O)N[C@@H](CCCCN)C(=O)N[C@@H](CCCCN)C(=O)N[C@@H](CO)C(=O)N[C@@H](CCCNC(=N)N)C(=O)N[C@@H](Cc1ccc(O)cc1)C(=O)N[C@@H](CCCCN)C(=O)N[C@@H](CO)C(=O)O [copper-64 labelled]; test system = male C57BL/6 mice, B16-F10 tumour, testis; setting = intravenous, 60 min; measurement = tissue uptake; value = 0.39 ± 0.05 %ID/g
